Assay results collected from several papers.
“And” joins repeats or separate records; there may be more than shown. Numbers after ± are the reported error.

SMILES	target or system	test	test system	setting	scale	quantity	value
CC(C)(C)[C@H](NC(=O)C(F)(F)F)C(=O)N1C[C@H]2[C@@H]([C@H]1C(=O)N[C@H](C#N)C[C@@H]1CCNC1=O)C2(C)C	SARS-CoV-2	viral replication	Vero E6	0.0195 µM		inhibition	9.08% and 0% and 0.39%
O=C(CSc1nc2ccccc2c(=O)[nH]1)NNC(=O)c1ccccc1Br	SARS-CoV-2	virucidal activity, plaque reduction		125 µM		inhibition	47.8 ± 5.1%
C/C=C(\NC(=O)C(NC(=O)CNC(=O)C(C)(O)C(O)/C=C\C(C)=C/C(C)CC)[C@H](C)O)C(=O)NC(C(=O)NC1C(=O)NC(COC)C(=O)NCC(=O)N[C@@H](C)C(=O)N(C)C([C@@H](C)O)C(=O)NC(C(OC)c2ccc(O)cc2)C(=O)N2CCCCC2C(=O)OC1C(C)C)[C@@H](C)[C@@H](C)C(N)=O (stereo partly shown)	SARS-CoV-2	viral replication, mNeonGreen reporter virus		50 µM		inhibition	6.86%
Cc1nn(-c2ccc(Cl)cc2)c2c1C(c1ccc(Cl)cc1Cl)C(C#N)=C(N)O2 (stereo not shown)	SARS-CoV-2	viral replication	Vero	10 µM		inhibition	67.2%
COc1ccc(NC(=O)c2ccc(-c3ccc(-c4noc(C)n4)cc3C)cc2)cc1N1CCN(C)CC1	SARS-CoV-2	viral replication	Vero E6, USA-WA1/2020	2.5 µM		inhibition	41.9%
Cc1cccn2c(=O)c3cc(C(=O)Nc4ccc(N(C)C)cc4)n(C)c3nc12	SARS-CoV-2	viral replication, qPCR	Vero C1008	10 µM		inhibition	94.5%
CC(C)(C)[C@H](NS(=O)(=O)C(F)(F)F)C(=O)N1C[C@H]2[C@@H]([C@H]1C(=O)N[C@H](C#N)C[C@@H]1CCNC1=O)C2(C)C	SARS-CoV-2	viral replication, qRT-PCR viral RNA	Vero E6	10 µM		inhibition	100%
Cc1nn(-c2ccc(Cl)cc2)c2c1C(c1c(Cl)cccc1Cl)C(C#N)=C(N)O2 (stereo not shown)	SARS-CoV-2	viral replication	Vero	1 µM		inhibition	5.3%
CNC(=O)[C@]1(O)C(=O)c2c([nH]c3ccc(Cl)cc23)-c2c(OC)c3ccccc3n21	SARS-CoV-2	viral replication, mNeonGreen reporter virus		50 µM		inhibition	14.1%
CNC(=O)[C@@H](NC(=O)[C@H](CC(C)C)[C@H](O)C(=O)NO)C(C)(C)C	Daboia russelii venom proteases (SVMP)	protease activity, inhibitor	GA population	100 µM, added: azocasein substrate	reference: venom alone	remaining activity	0%
COc1cc2c(cc1N1C[C@@H](C)N[C@@H](C)C1)N(C(=O)c1ccc(-c3ccc(-c4noc(C)n4)cc3C)cc1)CC2	SARS-CoV-2	viral replication	Vero E6, USA-WA1/2020	2.5 µM		inhibition	76.5%
CC(C)(C)[C@H](NS(=O)(=O)C1CC1)C(=O)N1C[C@H]2[C@@H]([C@H]1C(=O)N[C@H](C#N)C[C@@H]1CCNC1=O)C2(C)C	SARS-CoV-2	viral replication, qRT-PCR viral RNA	Vero E6	1 µM		inhibition	10%
CC(=O)O[C@H]1CC[C@]2(C)[C@H]3CC[C@]4(C)Oc5oc(C)cc(=O)c5C[C@H]4[C@]3(C)CC[C@H]2C1(C)C	SARS-CoV-2	viral replication	mNeonGreen reporter	50 µM		inhibition	102%
O=C[C@H](C[C@@H]1CCNC1=O)NC(=O)[C@H](CC1CCCCC1)NC(=O)c1cc2ccccc2[nH]1	SARS-CoV-2	viral replication, NP immunofluorescence	Vero E6, 2019-nCoV-WIV04	2.5 µM, added: remdesivir 0 µM		inhibition	86.2% and 99.6%
CC(C)(O)c1ccc2c(c1)C(=CCCN1CCC(O)(c3ccc(Cl)cc3)C(C)(C)C1)c1cccnc1CO2 (stereo not shown)	SARS-CoV-2	viral replication	Vero E6, USA-WA1/2020	2.5 µM		inhibition	65.4%
Cn1cnc(Cn2c(=O)[nH]/c(=N\c3cc4cn(C)nc4cc3Cl)n(Cc3cc(F)c(F)cc3F)c2=O)n1	SARS-CoV-2	viral replication	Vero C1008, wild type	0.1543 µM		inhibition	45%
Cn1cnc(Cn2c(=O)[nH]/c(=N\c3cc4cn(C)nc4cc3Cl)n(Cc3cc(F)c(F)cc3F)c2=O)n1			human, mild renal impairment	oral, 375 mg, hypertriglyceridaemia TEAE, Mild severity		patients with adverse event	0%
CC(C)=CCc1c(O)ccc(C(=O)/C=C/c2ccc(O)cc2)c1O	SARS-CoV-2	cytopathic effect	Vero E6	0.7812 µM, first run		inhibition	0%
O=C(CSc1nc2c(c(=O)[nH]1)CCCC2)NNC(=O)c1ccc(Cl)cc1	SARS-CoV-2	viral replication, plaque reduction		125 µM		inhibition	40 ± 10%
CC(C)CCC(=O)CC1c2ccccc2C(=O)N1c1ccc2ccc(Cl)nc2n1 (stereo not shown)	SARS-CoV-2	viral replication	Vero E6, USA-WA1/2020	2.5 µM		inhibition	42.9%

SMILES	target or system	test	test system	setting	scale	quantity	value
CCOC(=O)[C@H]1O[C@@H]1C(=O)N[C@@H](CC(C)C)C(=O)NCCC(C)C	SARS-CoV-2			15 µM		inhibition	40.7%
CCC(CC)COC(=O)[C@H](C)N[P@](=O)(OC[C@H]1O[C@@](C#N)(c2ccc3c(N)ncnn23)[C@H](O)[C@@H]1O)Oc1ccccc1	SARS-CoV-2	viral replication, refers to: nucleocapsid	NHBE, Omicron BA.5	1 µM, 3 h pretreatment		inhibition	77.7%
O=C(Nc1cccnc1)c1cc(-c2ccnc(F)c2)ccc1OCc1ccccc1	SARS-CoV-2	viral replication	Vero E6, USA-WA1/2020	2.5 µM		inhibition	42.1%
Cc1nn(-c2ccc(Cl)cc2)c2c1C(c1ccc(F)cc1F)C(C#N)=C(N)O2 (stereo not shown)	SARS-CoV-2	viral replication	Vero	1 µM		inhibition	0.758%
C[C@]12CC[C@@H]3c4ccc(OC(=O)c5cccnc5)cc4CC[C@H]3[C@@H]1CC[C@@H]2OC(=O)c1cccnc1	SARS-CoV-2	viral replication	Vero E6, USA-WA1/2020	2.5 µM		inhibition	46.2%
CCN(CCO)CCCC(C)Nc1ccnc2cc(Cl)ccc12 (stereo not shown)	SARS-CoV-2			3.75 µM		inhibition	31.8%
Cc1nn(-c2ccc(Cl)cc2)c2c1C(c1ccc(Cl)cc1)C(C#N)=C(N)O2 (stereo not shown)	SARS-CoV-2	viral replication	Vero	10 µM		inhibition	69.2%
OC[C@@H]1[C@@H](O)[C@H](O)[C@H]2[C@@H](O)CCN21	SARS-CoV-2	viral replication, mNeonGreen reporter virus		50 µM		inhibition	0.55%
CCc1occc(=O)c1[O][V](=[O])[O]c1c(CC)occc1=O	SARS-CoV-2	viral replication	USA-WA1/2020	2.5 µM		inhibition	41%
O=C(NCc1ccccc1Cl)C1CCCN(Cc2cccc(-c3ccc(F)cc3F)c2)C1 (stereo not shown)	SARS-CoV-2	cytopathic effect, cell-based CPE	USA_WA1/2020	round 1, 5-point dilution		AC50	12.6 µM
O=C(CSc1nc2c(c(=O)[nH]1)CCCC2)NNC(=O)c1ccc([N+](=O)[O-])cc1	SARS-CoV-2	virucidal activity, plaque reduction		31.25 µM		inhibition	22.2 ± 5.1%
COc1ccccc1-c1ccc(CN2CCCC(c3nc4ccc(C)cc4c(=O)[nH]3)C2)cc1 (stereo not shown)	SARS-CoV-2	cytopathic effect	USA_WA1/2020	round 1, 5-point		efficacy	93.8%
COc1ccc(C[C@@H]2c3cc(Oc4cc(C[C@@H]5c6cc(O)c(OC)cc6CCN5C)ccc4O)c(OC)cc3CCN2C)cc1	SARS-CoV-2	cytopathic effect	Vero C1008	0.7812 µM		inhibition	0%
CC[C@H](C)[C@H](NC(=O)[C@H](CC(C)C)NC(=O)[C@H](Cc1c[nH]c2ccccc12)NC(=O)[C@H](CCC(N)=O)NC(=O)[C@@H](NC(=O)[C@H](Cc1ccccc1)NC(=O)[C@H](C)NC(=O)[C@H](CCCCNC(=O)COCCOCCNC(=O)COCCOCCNC(=O)CC[C@H](NC(=O)CCCCCCCCCCCCCCCCCCC(=O)O)C(=O)O)NC(=O)[C@H](CCC(N)=O)NC(=O)[C@H](C)NC(=O)[C@@H](NC(=O)[C@H](CCCCN)NC(=O)[C@H](CC(=O)O)NC(=O)[C@H](CC(C)C)NC(=O)C(C)(C)NC(=O)[C@@H](NC(=O)[C@H](CO)NC(=O)[C@H](Cc1ccc(O)cc1)NC(=O)[C@H](CC(=O)O)NC(=O)[C@H](CO)NC(=O)[C@@H](NC(=O)[C@H](Cc1ccccc1)NC(=O)[C@@H](NC(=O)CNC(=O)[C@H](CCC(=O)O)NC(=O)C(C)(C)NC(=O)[C@@H](N)Cc1ccc(O)cc1)[C@@H](C)O)[C@@H](C)O)[C@@H](C)CC)[C@@H](C)CC)C(C)C)C(=O)N[C@@H](C)C(=O)NCC(=O)NCC(=O)N1CCC[C@H]1C(=O)N[C@@H](CO)C(=O)N[C@@H](CO)C(=O)NCC(=O)N[C@@H](C)C(=O)N1CCC[C@H]1C(=O)N1CCC[C@H]1C(=O)N1CCC[C@H]1C(=O)N[C@@H](CO)C(N)=O		refers to: treatment-emergent upper respiratory tract infection	healthy subjects	4.5 mg, multiple ascending dose		subjects with adverse event	0%
Nc1ncnc2c([C@@H]3N[C@H](CO)[C@@H](O)[C@H]3O)c[nH]c12	Middle East respiratory syndrome-related coronavirus	viral replication	Vero C1008, Jordan N3	3.1 µM		inhibition	18.3%
O=C(O[C@@H]1Cc2c(O)cc(O)cc2O[C@@H]1c1cc(O)c(O)c(O)c1)c1cc(O)c(O)c(O)c1	SARS-CoV-2	cytopathic effect	Vero E6	12.5 µM, first run		inhibition	0%
C=CC(C)(C)c1[nH]c2ccccc2c1-c1c(O)c(OC)c2c(c1OC)O[C@H]1Nc3ccccc3[C@@]21O	SARS-CoV-2	viral replication, mNeonGreen reporter virus		50 µM		inhibition	88.5%
COc1cccc2c(N3CCc4ccccc4C3C)nc(Nc3ccc(F)cc3C)nc12 (stereo not shown)	SARS-CoV-2	viral replication	Vero C1008, USA-WA1/2020	concentration not given, 24 h		inhibition	50 to 60%
Cc1nn(-c2ccc(Cl)cc2)c2c1C(c1ccc(Br)cc1)C(C#N)=C(N)O2 (stereo not shown)	SARS-CoV-2	viral replication	Vero	10 µM		inhibition	42.2%
O=C(/C=C/c1ccc(O)c(O)c1/C=C/c1ccc(O)c(O)c1)O[C@H](Cc1ccc(O)c(O)c1)C(=O)O	SARS-CoV-2	cytopathic effect	Vero E6	100 µM, first run		inhibition	50%
